Measured values collected from several papers.
Each numbered part is a random draw from the data of one study; scales do not carry over between parts.
UniProt P21802, sequence (whole entry, looked up): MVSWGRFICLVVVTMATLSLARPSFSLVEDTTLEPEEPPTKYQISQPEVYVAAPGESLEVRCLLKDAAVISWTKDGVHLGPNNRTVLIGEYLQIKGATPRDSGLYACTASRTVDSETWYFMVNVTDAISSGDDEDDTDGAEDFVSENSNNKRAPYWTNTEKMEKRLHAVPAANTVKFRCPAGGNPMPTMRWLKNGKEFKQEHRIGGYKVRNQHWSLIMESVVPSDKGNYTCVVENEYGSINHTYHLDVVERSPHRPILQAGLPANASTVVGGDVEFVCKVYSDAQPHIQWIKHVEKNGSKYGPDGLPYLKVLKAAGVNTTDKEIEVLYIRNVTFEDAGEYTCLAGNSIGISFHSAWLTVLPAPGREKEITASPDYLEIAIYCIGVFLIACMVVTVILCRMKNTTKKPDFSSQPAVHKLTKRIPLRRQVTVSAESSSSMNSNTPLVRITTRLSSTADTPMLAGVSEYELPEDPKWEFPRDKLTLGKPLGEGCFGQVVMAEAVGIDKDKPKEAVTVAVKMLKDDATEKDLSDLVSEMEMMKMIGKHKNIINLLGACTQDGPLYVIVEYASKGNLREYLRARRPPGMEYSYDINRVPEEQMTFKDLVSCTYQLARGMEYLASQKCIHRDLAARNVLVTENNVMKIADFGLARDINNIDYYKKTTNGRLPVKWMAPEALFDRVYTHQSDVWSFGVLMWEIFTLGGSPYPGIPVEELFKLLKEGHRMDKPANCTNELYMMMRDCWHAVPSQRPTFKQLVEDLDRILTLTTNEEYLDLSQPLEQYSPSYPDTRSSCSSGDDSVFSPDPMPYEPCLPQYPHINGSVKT
UniProt Q9Y4K4, sequence (whole entry, looked up): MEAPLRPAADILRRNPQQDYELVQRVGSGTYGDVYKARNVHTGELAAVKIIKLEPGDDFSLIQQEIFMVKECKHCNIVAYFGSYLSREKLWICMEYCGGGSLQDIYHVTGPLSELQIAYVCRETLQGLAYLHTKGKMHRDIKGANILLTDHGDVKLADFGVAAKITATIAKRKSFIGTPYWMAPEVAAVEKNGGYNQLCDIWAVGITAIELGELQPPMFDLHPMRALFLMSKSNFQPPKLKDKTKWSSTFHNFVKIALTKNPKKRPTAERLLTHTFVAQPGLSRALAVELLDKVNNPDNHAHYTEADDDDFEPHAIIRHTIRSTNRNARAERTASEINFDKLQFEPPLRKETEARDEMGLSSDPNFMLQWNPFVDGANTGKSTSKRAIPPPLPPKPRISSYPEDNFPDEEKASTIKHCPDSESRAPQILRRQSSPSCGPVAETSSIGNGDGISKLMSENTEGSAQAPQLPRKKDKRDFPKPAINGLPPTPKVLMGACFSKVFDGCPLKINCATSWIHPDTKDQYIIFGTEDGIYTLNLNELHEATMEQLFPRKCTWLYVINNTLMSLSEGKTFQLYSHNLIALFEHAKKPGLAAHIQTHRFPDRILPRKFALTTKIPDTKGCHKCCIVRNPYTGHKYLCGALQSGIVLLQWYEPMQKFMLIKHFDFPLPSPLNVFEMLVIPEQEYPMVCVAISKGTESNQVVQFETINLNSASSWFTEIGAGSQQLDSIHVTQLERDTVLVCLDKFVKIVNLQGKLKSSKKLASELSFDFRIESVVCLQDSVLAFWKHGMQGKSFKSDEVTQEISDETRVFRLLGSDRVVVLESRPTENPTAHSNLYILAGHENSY
UniProt P36507, sequence (whole entry, looked up): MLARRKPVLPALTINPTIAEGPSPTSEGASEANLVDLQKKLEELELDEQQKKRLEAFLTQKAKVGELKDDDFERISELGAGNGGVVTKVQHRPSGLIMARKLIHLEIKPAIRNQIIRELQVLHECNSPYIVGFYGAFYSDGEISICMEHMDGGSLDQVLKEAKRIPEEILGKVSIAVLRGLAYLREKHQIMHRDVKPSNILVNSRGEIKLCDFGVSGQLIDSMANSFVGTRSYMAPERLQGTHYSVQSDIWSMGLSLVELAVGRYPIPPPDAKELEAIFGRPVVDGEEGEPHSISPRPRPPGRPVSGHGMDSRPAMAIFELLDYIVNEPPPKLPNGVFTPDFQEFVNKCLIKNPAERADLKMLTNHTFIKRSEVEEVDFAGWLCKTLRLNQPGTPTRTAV
UniProt Q8NG66, sequence (whole entry, looked up): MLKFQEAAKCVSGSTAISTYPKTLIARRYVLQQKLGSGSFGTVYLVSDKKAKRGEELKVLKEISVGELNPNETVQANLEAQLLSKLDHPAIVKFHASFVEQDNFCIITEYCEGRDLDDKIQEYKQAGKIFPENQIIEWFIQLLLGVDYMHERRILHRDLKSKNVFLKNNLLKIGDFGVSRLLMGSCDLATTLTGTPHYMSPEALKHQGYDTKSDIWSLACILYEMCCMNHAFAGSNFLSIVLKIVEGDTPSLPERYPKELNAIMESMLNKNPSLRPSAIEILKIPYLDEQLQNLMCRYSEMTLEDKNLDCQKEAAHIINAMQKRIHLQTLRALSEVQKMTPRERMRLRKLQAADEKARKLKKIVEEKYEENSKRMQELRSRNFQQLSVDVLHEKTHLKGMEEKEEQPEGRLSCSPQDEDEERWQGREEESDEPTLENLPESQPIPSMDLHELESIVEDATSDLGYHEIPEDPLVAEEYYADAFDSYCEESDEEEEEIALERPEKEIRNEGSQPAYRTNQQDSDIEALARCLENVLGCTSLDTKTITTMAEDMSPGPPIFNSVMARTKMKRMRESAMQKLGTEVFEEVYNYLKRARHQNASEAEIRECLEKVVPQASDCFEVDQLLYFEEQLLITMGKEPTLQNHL
UniProt Q99558, sequence (whole entry, looked up): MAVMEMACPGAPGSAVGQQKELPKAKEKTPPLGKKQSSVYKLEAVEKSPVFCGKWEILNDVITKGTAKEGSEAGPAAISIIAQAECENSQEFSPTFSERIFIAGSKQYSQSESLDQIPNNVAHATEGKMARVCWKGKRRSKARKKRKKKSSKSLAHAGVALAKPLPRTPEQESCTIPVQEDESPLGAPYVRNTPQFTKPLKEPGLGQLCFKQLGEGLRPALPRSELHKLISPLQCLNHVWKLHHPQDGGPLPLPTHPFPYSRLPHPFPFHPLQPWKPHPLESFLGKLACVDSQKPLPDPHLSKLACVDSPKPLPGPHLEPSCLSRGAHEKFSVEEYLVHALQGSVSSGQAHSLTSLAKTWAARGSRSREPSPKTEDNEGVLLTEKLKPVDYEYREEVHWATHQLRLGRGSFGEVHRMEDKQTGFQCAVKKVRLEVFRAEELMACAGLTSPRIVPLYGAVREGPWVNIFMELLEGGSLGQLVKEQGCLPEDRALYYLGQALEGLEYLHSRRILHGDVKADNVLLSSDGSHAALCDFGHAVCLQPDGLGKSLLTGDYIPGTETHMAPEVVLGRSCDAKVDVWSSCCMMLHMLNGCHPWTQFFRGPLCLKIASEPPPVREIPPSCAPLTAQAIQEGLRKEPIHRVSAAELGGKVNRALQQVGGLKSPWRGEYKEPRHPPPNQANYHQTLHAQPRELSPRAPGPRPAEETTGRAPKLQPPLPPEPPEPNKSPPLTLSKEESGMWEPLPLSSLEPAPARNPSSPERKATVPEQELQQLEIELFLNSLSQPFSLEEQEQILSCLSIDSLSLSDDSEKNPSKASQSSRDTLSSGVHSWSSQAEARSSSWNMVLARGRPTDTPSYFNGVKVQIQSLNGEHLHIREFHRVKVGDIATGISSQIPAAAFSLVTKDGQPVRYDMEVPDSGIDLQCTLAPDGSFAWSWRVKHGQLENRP

Study 1 — medium: plasma; route: oral; notes: cycle 1
SMILES: COc1ccc(-c2c(Nc3ccccn3)[nH]c3c(C4=CCCCC4)c(-c4ccccc4)nn3c2=O)cc1
| technique | species | dose | time | plasma concentration, median [ng/mL] |
| --- | --- | --- | --- | --- |
| – | human patients | 200 mg once daily | 4 h | 5720 |
| – | human patients | 150 mg once daily | 2 h | 5010 |
| – | human patients | 400 mg once daily | 8 h | 2160 |
| LC-MS/MS | human | 50 mg once daily | 2 h | 1160 |
| – | human patients | 150 mg once daily | 0 h | 3230 |
| – | human patients | 100 mg once daily | 4 h | 4960 |
| – | human patients | 200 mg once daily | 2 h | 8630 |

Study 2 — observed: enzyme activity; mode: inhibitor; concentration: 0.5 µM; relative to: control
Target: Platelet-derived growth factor receptor alpha (PDGFRA, Homo sapiens, UniProt P16234)
UniProt P16234, sequence (whole entry, looked up): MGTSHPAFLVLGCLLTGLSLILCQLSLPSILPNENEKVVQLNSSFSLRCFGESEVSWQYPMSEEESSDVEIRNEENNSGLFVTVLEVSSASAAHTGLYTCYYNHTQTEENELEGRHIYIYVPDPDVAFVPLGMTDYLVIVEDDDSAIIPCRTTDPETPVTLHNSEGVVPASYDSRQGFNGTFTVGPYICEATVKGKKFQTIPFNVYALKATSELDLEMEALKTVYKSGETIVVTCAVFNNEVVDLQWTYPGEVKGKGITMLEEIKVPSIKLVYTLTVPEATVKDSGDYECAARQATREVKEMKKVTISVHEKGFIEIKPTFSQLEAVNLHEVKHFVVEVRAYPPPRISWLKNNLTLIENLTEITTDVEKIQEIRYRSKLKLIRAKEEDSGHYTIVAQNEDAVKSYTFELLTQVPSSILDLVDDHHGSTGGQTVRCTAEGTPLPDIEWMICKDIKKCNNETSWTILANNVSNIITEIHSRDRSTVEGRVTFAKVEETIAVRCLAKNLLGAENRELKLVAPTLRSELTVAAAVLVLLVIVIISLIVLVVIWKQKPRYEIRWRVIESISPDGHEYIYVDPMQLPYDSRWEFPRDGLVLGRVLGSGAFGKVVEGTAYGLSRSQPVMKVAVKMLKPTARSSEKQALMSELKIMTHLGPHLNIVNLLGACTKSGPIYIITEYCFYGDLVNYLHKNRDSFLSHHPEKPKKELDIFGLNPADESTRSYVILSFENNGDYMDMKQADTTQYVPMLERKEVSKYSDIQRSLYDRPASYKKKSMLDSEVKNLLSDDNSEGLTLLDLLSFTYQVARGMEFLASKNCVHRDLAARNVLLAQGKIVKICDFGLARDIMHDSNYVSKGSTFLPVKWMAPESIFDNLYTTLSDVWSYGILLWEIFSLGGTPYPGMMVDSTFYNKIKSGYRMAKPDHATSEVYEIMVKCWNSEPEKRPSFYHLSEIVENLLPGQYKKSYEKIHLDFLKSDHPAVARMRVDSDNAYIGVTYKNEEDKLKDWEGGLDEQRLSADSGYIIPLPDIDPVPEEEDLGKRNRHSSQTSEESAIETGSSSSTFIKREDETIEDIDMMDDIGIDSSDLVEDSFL
| Structure (SMILES) | remaining activity [%] |
| --- | --- |
| Cc1cncc2cccc(S(=O)(=O)N3CCCN(C(=O)CN)C[C@@H]3C)c12 | 93.5 |
| CC[n+]1c(/C=C/N(C)c2ccccc2)n(-c2ccccc2)c2ccc(-c3nc4ccccc4s3)cc21 | 95.2 |
| Nc1nccc(-c2c(-c3ccc(F)cc3)ncn2C2CCNCC2)n1 | 95.8 |
| Fc1ccc(-c2nc3n(c2-c2ccncc2)CCS3)cc1 | 98 |
| Cc1ccc(NC2=CC(=O)c3sc(C)nc3C2=O)cc1 | 85.9 |
| NC(=O)c1ccc(N(C(N)=O)c2c(F)cccc2F)nc1-c1ccc(F)cc1F | 102 |

Study 3
Compound: CC(C)n1cnc(-c2ccc(F)cc2)c1-c1ncc(C(=O)Nc2ccc(N3CCN(C)CC3)cc2)[nH]1
| technique | measured | species | route | dose | notes | patients with adverse event [%] |
| --- | --- | --- | --- | --- | --- | --- |
| – | periorbital oedema, grade 5 | idiopathic pulmonary fibrosis patients | oral | 60 mg once daily | – | 0 |
| Phase 2a trial | hepatic steatosis | human, idiopathic pulmonary fibrosis | – | 30 mg once daily | grade 5 | 0 |
| Phase 2a trial | hypertriglyceridaemia | human, idiopathic pulmonary fibrosis | – | all compound arms total | grade 4 | 0 |
| Phase 2a trial | hypocalcaemia | human, idiopathic pulmonary fibrosis | – | 30 mg once daily | grade 5 | 0 |
| Phase 2a trial | hypokalaemia | human, idiopathic pulmonary fibrosis | – | 30 mg once daily | grade 3 | 0 |

Study 4 — observed: cell-free assay; technique: competition with immobilised ligand; concentration: 1 µM
Structure (SMILES): CNC(=O)Nc1ccc2c(c1)[C@@]1(CC2)OC(=O)N(CC(=O)N(Cc2ccc(F)cc2)[C@@H](C)C(F)(F)F)C1=O
| target | remaining binding [%] |
| --- | --- |
| KIT (Homo sapiens, UniProt P10721, D816V) | 96 |
| NEK11 (Homo sapiens, UniProt Q8NG66) | 84 |
| HIPK1 (Homo sapiens, UniProt Q86Z02) | 78 |
| FGFR2 (Homo sapiens, UniProt P21802) | 87 |
| MAP3K14 (Homo sapiens, UniProt Q99558) | 68 |
| STK4 (Homo sapiens, UniProt Q13043) | 100 |
| DDR1 (Homo sapiens, UniProt Q08345) | 100 |
| CIT (Homo sapiens, UniProt O14578) | 100 |
| PIK3CA (Homo sapiens, UniProt P42336, H1047Y) | 100 |
| NEK10 (Homo sapiens, UniProt Q6ZWH5) | 91 |
| ERBB3 (Homo sapiens, UniProt P21860) | 81 |
| Tyrosine-protein kinase ABL1, non-phosphorylated (ABL1, Homo sapiens, UniProt P00519) | 93 |
| PIKFYVE (Homo sapiens, UniProt Q9Y2I7) | 72 |
| MAP4K5 (Homo sapiens, UniProt Q9Y4K4) | 100 |
| MAP2K2 (Homo sapiens, UniProt P36507) | 99 |

Single results of other studies
| SMILES | cell line | observed | time | quantity | result |
| --- | --- | --- | --- | --- | --- |
| Cc1cc2c(C(N)=O)c(N)n(-c3c(C)ccc(O)c3C)c2nc1C | biomarker-negative wild-type cell lines | cell growth | 168 h | IC50 | 1030 nM |

Repeated from above (study 4):
| target | remaining binding [%] |
| --- | --- |
| KIT (Homo sapiens, UniProt P10721, D816V) | 96 |
| NEK11 (Homo sapiens, UniProt Q8NG66) | 84 |
| HIPK1 (Homo sapiens, UniProt Q86Z02) | 78 |
| FGFR2 (Homo sapiens, UniProt P21802) | 87 |
